Measured values gathered from unrelated publications.
Protocols differ between the studies behind these lines.
Organism: Bacillus subtilis

SMILES | assay | system | conditions | MIC
CC[C@H](C)[C@H](N)C(=O)N[C@@H](CCCNC(=N)N)C(=O)N[C@H](C(=O)N[C@@H](Cc1c[nH]c2ccccc12)C(=O)N[C@@H](Cc1ccccc1)C(=O)N[C@H](C(=O)N[C@@H](CCCCN)C(=O)N[C@H](C(=O)N[C@@H](CCCNC(=N)N)C(=O)N[C@@H](CCCCN)C(=O)N[C@@H](Cc1c[nH]c2ccccc12)C(=O)N[C@@H](CCCCN)C(=O)N[C@@H](C)C(=O)N[C@H](C(=O)N[C@@H](Cc1ccc(O)cc1)C(=O)N[C@@H](Cc1c[nH]cn1)C(=O)N[C@H](C(N)=O)[C@@H](C)O)[C@@H](C)CC)C(C)C)[C@@H](C)CC)C(C)C | broth dilution | KCTC 3068 | – | 50 µM
CCCCCCCCCCCCCCCC(=O)NS(=O)(=O)OCC | – | ATCC 23857 | – | > 200 µg/mL
CC[C@H](C)[C@H](NC(=O)[C@H](CC(C)C)NC(=O)[C@H](CCCCN)NC(=O)[C@@H](NC(=O)[C@H](C)NC(=O)[C@H](CCC(=O)O)NC(=O)[C@H](Cc1c[nH]cn1)NC(=O)[C@@H](NC(=O)[C@H](CCCCN)NC(=O)[C@H](CCC(N)=O)NC(=O)[C@H](Cc1ccccc1)NC(=O)[C@@H](NC(=O)[C@H](CCCCN)NC(=O)[C@@H](N)CCCCN)C(C)C)[C@@H](C)CC)[C@@H](C)CC)C(N)=O | broth microdilution | KCTC 1998 | 18 h, 37 °C | 32 µM
CCCCCCCCCC(=O)N[C@@H](Cc1c[nH]c2ccccc12)C(=O)N[C@H](CC(N)=O)C(=O)N[C@@H](CC(=O)O)C(=O)N[C@@H]1C(=O)NCC(=O)N[C@@H](CCCN)C(=O)N[C@@H](CC(=O)O)C(=O)N[C@H](C)C(=O)N[C@@H](CC(=O)O)C(=O)NCC(=O)N[C@H](CO)C(=O)N[C@@H]([C@H](C)CC(=O)O)C(=O)N[C@@H](CC(=O)c2ccccc2N)C(=O)O[C@@H]1C | broth microdilution | ATCC 6633 | 24 h | 7.7 µM
CC[C@H](C)CCCCC(=O)N[C@@H](CCN)C(=O)N[C@H](C(=O)N[C@@H](CCN)C(=O)N[C@H]1CCNC(=O)[C@H]([C@@H](C)O)NC(=O)[C@H](CCN)NC(=O)[C@H](CCN)NC(=O)[C@H](CC(C)C)NC(=O)[C@@H](Cc2ccccc2)NC(=O)[C@H](CCN)NC1=O)[C@@H](C)O | broth microdilution | ATCC 6633 | 24 h, 37 °C | 4 µg/mL
CC(C)C[C@H](NC(=O)[C@@H](NC(=O)[C@H](CCCNC(=N)N)NC(=O)[C@H](CCC(N)=O)NC(=O)[C@H](Cc1ccccc1)NC(=O)[C@H](Cc1ccc(O)cc1)NC(=O)[C@H](CC(N)=O)NC(=O)[C@H](Cc1c[nH]c2ccccc12)NC(=O)[C@@H](NC(=O)[C@H](CCCNC(=N)N)NC(=O)[C@H](CCCCN)NC(=O)[C@@H](N)Cc1ccccc1)C(C)C)C(C)C)C(=O)N[C@H](C(=O)N[C@@H](CCCCN)C(=O)N[C@@H](CCCCN)C(=O)N[C@@H](Cc1ccc(O)cc1)C(=O)N[C@@H](C)C(N)=O)C(C)C | broth dilution | KCTC 3068 | – | < 3.1 µM
CCCCCCCCCCCCCCNC(=O)CP(=O)(O)O | – | ATCC 23857 | – | 50 µg/mL
CC[C@H](C)[C@H](N)C(=O)N[C@@H](CCCNC(=N)N)C(=O)N[C@H](C(=O)N[C@@H](Cc1c[nH]c2ccccc12)C(=O)N[C@@H](Cc1c[nH]c2ccccc12)C(=O)N[C@@H](CCCCN)C(=O)N[C@H](C(=O)N[C@H](C(=O)N[C@@H](CCCNC(=N)N)C(=O)N[C@@H](CCCCN)C(=O)N[C@@H](Cc1c[nH]c2ccccc12)C(=O)N[C@@H](CCCCN)C(=O)N[C@@H](C)C(=O)N[C@H](C(=O)N[C@@H](Cc1c[nH]c2ccccc12)C(=O)N[C@@H](Cc1c[nH]cn1)C(N)=O)[C@@H](C)CC)C(C)C)[C@@H](C)CC)C(C)C | broth dilution | KCTC 3068 | – | 25 µM
N=C(N)NCCC[C@H](NC(=O)[C@H](Cc1c[nH]c2ccccc12)NC(=O)[C@@H](N)CCCNC(=N)N)C(=O)N[C@@H](Cc1c[nH]c2ccccc12)C(=O)N[C@@H](CCC(N)=O)C(=O)N[C@@H](Cc1ccccc1)C(=O)N[C@@H](CCC(N)=O)C(=O)N[C@@H](Cc1ccccc1)C(=O)N[C@@H](CCCCN)C(N)=O | broth microdilution, optical density | – | – | 19 µM
CC[C@H](C)[C@H](NC(=O)[C@H](CC(C)C)NC(=O)[C@H](CCCCN)NC(=O)[C@@H](NC(=O)[C@H](C)NC(=O)[C@H](CCC(=O)O)NC(=O)[C@H](Cc1c[nH]cn1)NC(=O)[C@@H](NC(=O)[C@H](CCCCN)NC(=O)[C@H](CCC(N)=O)NC(=O)[C@H](Cc1ccccc1)NC(=O)[C@@H](N)C(C)C)[C@@H](C)CC)[C@@H](C)CC)C(N)=O | broth microdilution | KCTC 1998 | 18 h, 37 °C | > 128 µM
N=C(N)NCCC[C@H](NC(=O)[C@@H](N)CCCNC(=N)N)C(=O)N[C@@H](Cc1c[nH]c2ccccc12)C(=O)N[C@@H](Cc1c[nH]c2ccccc12)C(=O)N[C@@H](CCC(N)=O)C(=O)N[C@@H](Cc1ccccc1)C(=O)N[C@@H](CCC(N)=O)C(=O)N[C@@H](Cc1ccccc1)C(=O)N[C@@H](CCCCN)C(N)=O | broth microdilution, optical density | – | – | 9.6 µM
c1ccc(CCOC2CCCc3c2[nH]c2ccccc32)cc1 (centres unmarked) | broth microdilution | 168 | – | 512 µg/mL
N=C(N)NCCC[C@H](NC(=O)[C@@H](N)CCCNC(=N)N)C(=O)N[C@@H](Cc1c[nH]c2ccccc12)C(=O)N[C@@H](Cc1c[nH]c2ccccc12)C(=O)N[C@@H](Cc1ccccc1)C(=O)N[C@@H](CCC(N)=O)C(=O)N[C@@H](Cc1ccccc1)C(=O)N[C@@H](CCC(N)=O)C(=O)N[C@@H](Cc1ccccc1)C(=O)N[C@@H](CCCCN)C(N)=O | broth microdilution, optical density | – | – | 71 µM
CCCCCCCC/C=C\CCCCCCCC(=O)NS(=O)(=O)NCCC | – | ATCC 23857 | – | > 200 µg/mL

Some of these lines once more:
SMILES | assay | system | conditions | MIC
c1ccc(CCOC2CCCc3c2[nH]c2ccccc32)cc1 (centres unmarked) | broth microdilution | 168 | – | 512 µg/mL
